Published values from different studies.
Each numbered part is a random draw from the data of one study; scales do not carry over between parts.
Chain of UniProt Q96PY6 (whole entry, looked up): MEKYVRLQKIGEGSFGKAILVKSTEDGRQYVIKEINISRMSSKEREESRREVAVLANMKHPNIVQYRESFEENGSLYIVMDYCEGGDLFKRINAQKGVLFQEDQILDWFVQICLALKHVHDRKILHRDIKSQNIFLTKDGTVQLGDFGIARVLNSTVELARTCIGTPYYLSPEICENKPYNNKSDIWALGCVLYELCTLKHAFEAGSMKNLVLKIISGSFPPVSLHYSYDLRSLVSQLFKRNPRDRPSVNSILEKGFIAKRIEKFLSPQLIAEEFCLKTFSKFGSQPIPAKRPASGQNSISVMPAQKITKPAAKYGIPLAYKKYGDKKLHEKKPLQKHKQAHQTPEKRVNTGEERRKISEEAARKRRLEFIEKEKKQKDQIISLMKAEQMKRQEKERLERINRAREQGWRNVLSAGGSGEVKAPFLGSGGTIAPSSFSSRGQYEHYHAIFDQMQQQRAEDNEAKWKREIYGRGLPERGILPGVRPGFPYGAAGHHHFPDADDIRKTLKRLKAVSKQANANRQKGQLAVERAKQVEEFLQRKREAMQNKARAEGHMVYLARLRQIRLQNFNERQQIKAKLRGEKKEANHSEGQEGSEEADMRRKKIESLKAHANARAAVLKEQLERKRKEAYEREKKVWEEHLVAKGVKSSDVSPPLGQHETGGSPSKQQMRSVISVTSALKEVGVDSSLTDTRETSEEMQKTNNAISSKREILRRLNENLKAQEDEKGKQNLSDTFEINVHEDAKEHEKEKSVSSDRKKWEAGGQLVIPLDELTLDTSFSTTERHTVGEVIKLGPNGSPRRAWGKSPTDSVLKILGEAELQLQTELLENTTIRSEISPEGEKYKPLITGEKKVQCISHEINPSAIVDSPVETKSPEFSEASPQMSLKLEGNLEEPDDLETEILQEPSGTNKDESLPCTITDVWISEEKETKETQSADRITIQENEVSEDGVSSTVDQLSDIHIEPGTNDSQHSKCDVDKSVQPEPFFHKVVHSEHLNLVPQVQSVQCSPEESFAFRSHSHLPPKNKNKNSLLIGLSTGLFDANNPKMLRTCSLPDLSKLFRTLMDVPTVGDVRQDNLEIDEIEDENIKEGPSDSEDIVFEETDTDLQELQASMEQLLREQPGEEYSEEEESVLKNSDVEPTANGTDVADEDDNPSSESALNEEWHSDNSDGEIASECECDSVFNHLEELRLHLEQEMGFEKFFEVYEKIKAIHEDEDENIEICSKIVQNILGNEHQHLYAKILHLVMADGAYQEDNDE
Chain of UniProt O14733 (whole entry, looked up): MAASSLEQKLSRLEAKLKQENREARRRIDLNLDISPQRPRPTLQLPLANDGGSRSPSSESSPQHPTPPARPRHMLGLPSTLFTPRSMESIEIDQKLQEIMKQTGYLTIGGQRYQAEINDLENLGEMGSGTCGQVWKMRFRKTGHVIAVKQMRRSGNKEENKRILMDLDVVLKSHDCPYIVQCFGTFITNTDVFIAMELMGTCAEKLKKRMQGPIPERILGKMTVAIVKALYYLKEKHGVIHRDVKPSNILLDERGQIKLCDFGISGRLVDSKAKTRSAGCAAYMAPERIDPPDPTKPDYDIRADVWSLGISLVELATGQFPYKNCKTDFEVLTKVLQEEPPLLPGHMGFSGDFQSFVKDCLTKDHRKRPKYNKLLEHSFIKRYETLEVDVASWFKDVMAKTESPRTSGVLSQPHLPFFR
Chain of UniProt Q6PHR2 (whole entry, looked up): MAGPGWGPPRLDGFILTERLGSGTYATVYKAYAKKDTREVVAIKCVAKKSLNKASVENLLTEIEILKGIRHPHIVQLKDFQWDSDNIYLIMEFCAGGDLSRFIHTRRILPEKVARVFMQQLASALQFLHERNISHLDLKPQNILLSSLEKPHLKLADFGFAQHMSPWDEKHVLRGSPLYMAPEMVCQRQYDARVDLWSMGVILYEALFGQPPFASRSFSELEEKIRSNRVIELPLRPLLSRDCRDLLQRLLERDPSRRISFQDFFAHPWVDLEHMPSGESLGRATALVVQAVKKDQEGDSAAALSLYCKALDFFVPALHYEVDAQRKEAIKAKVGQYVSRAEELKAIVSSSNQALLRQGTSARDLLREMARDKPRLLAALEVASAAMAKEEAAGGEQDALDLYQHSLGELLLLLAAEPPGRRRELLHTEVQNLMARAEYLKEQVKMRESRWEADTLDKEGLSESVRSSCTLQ
Chain of UniProt Q9UKE5 (whole entry, looked up): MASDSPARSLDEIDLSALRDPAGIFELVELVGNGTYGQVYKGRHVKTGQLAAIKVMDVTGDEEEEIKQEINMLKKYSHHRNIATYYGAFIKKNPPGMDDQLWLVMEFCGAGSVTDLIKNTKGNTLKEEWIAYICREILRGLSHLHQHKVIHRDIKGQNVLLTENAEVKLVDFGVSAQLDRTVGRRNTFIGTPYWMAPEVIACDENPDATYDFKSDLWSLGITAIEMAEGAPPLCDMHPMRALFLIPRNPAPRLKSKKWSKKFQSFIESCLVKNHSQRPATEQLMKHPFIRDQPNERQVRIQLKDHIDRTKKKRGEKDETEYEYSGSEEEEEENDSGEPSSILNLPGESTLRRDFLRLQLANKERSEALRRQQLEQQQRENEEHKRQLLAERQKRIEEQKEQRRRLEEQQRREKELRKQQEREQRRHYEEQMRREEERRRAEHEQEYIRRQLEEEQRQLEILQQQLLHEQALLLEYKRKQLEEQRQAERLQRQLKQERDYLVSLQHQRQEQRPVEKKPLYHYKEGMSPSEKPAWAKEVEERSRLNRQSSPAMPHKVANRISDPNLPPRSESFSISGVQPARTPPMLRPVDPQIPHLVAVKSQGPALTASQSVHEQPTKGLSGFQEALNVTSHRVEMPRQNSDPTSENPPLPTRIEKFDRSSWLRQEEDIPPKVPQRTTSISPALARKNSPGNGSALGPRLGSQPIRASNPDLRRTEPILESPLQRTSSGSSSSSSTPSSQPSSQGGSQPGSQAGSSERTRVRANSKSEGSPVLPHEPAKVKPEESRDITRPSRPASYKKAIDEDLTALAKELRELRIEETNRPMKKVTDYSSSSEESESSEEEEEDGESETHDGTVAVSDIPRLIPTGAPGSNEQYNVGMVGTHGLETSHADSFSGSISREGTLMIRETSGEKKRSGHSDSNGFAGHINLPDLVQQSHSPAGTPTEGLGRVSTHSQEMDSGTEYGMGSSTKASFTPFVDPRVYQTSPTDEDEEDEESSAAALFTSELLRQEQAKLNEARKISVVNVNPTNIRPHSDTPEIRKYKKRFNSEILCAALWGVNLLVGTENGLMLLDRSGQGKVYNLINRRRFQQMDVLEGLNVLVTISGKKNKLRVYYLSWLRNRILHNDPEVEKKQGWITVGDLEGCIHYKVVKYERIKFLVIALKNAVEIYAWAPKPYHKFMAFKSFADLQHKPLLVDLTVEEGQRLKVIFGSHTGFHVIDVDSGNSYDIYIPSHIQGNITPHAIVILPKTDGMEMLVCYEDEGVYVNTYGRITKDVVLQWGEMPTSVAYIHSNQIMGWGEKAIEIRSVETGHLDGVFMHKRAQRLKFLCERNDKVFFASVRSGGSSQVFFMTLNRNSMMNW
Chain of UniProt Q9HC98 (whole entry, looked up): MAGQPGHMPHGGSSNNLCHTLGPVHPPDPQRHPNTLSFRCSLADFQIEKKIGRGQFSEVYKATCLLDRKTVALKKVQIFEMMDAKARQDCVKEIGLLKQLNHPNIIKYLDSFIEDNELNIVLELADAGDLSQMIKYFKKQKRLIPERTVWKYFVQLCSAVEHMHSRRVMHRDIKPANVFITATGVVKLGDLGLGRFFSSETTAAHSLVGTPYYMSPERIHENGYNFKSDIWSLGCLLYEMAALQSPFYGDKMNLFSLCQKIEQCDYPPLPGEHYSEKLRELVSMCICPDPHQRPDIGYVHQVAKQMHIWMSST
Chain of UniProt Q12866 (whole entry, looked up): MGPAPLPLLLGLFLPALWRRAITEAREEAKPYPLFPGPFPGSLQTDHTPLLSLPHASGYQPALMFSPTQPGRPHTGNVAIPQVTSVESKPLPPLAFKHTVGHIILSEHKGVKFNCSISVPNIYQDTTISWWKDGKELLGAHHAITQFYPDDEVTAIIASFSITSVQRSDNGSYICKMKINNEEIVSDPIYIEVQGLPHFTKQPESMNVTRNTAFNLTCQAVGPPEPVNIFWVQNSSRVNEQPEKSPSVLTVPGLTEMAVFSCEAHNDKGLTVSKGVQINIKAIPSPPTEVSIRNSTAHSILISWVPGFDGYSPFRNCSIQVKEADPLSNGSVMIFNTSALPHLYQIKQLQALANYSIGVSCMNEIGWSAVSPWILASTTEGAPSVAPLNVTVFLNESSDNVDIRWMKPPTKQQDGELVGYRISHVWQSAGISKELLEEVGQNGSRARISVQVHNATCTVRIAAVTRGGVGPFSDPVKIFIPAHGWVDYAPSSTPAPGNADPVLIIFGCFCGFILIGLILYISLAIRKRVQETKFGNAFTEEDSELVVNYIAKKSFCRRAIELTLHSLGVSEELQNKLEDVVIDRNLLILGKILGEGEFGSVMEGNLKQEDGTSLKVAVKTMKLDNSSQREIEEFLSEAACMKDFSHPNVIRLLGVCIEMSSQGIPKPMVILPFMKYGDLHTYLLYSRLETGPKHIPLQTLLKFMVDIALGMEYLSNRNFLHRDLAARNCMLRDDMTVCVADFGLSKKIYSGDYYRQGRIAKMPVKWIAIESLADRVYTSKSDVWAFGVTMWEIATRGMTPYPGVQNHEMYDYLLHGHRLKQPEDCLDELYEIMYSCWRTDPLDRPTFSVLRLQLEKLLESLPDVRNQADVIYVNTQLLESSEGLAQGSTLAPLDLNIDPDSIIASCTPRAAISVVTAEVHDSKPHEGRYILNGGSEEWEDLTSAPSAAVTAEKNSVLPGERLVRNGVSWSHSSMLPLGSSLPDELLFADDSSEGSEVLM

Series 1 — method: RNA Bind-n-Seq; molecule type: RNA; sample: in vitro; concentration: 20 nM; notes: 6-mer, flanks averaged, single round; with: 150 mM KCl; relative to: input library; direction: higher = stronger binding
Target: TAR DNA-binding protein 43, full length, His tag (TARDBP, Homo sapiens, UniProt Q13148, residues 1-414)
`GGCAUC` — result for “6-mer enrichment (R)”: 0.983.
`UUAACG` — result for “6-mer enrichment (R)”: 0.621.
Under “6-mer enrichment (R)”, `GGCAAG` is recorded as 2.18.
`UGUGAU`: “6-mer enrichment (R)” 0.88.
For `UUCCUC`, “6-mer enrichment (R)” read 0.538.
`UCGUCC` — result for “6-mer enrichment (R)”: 0.641.
`CAUAUC`: “6-mer enrichment (R)” 0.548.
For `AUAUCC`, “6-mer enrichment (R)” read 0.558.

Series 2 — SMILES: CCOc1nc(NC(=O)Cc2cc(OC)ccc2OC)cc(N)c1C#N; observed: enzyme activity; mode: inhibitor; concentration: 0.5 µM; relative to: control
It gave 95.2% for remaining activity (Serine/threonine-protein kinase Nek1 (NEK1, Homo sapiens, UniProt Q96PY6)).
Tyrosine-protein kinase Mer (MERTK, Homo sapiens, UniProt Q12866) — remaining activity: 83.9%.
For Dual specificity mitogen-activated protein kinase kinase 2 (MAP2K2, Homo sapiens, UniProt P36507): remaining activity read 90.3%.
The remaining activity was 104% (Serine/threonine-protein kinase A-Raf (ARAF, Homo sapiens, UniProt P10398)).
The remaining activity was 96.6% (Serine/threonine-protein kinase TBK1 (TBK1, Homo sapiens, UniProt Q9UHD2)).
The remaining activity was 104% (Serine/threonine-protein kinase ULK3 (ULK3, Homo sapiens, UniProt Q6PHR2)).
The remaining activity was 100% (Casein kinase I isoform gamma-2 (CSNK1G2, Homo sapiens, UniProt P78368)).
It gave 92.8% for remaining activity (Mitogen-activated protein kinase kinase kinase 5 (MAP3K5, Homo sapiens, UniProt Q99683)).
It gave 98.1% for remaining activity (Serine/threonine-protein kinase Nek6 (NEK6, Homo sapiens, UniProt Q9HC98)).
It gave 110% for remaining activity (Serine/threonine-protein kinase ULK2 (ULK2, Homo sapiens, UniProt Q8IYT8)).
The remaining activity was 96% (Mitogen-activated protein kinase 3 (MAPK3, Homo sapiens, UniProt P27361)).
It gave 106% for remaining activity (Fibroblast growth factor receptor 1 (FGFR1, Homo sapiens, UniProt P11362)).

Series 3 — observed: cell-free assay; method: competition with immobilised ligand; concentration: 1 µM
SMILES: COc1cc(-c2cn(C3CCc4ccccc4N(CC(F)(F)F)C3=O)nn2)ccc1-n1ccc(C)n1 (centres unmarked)
It gave 81% for remaining binding (TRAF2 and NCK-interacting protein kinase (TNIK, Homo sapiens, UniProt Q9UKE5)).
The remaining binding was 85% (Calcium/calmodulin-dependent protein kinase type II subunit alpha (CAMK2A, Homo sapiens, UniProt Q9UQM7)).
Hepatocyte growth factor receptor (MET, Homo sapiens, UniProt P08581) — remaining binding: 100%.
The remaining binding was 100% (Dual specificity mitogen-activated protein kinase kinase 7 (MAP2K7, Homo sapiens, UniProt O14733)).
It gave 99% for remaining binding (Ribosomal protein S6 kinase alpha-2, C-terminal kinase domain (RPS6KA2, Homo sapiens, UniProt Q15349)).

Series 4 — organism: Sarcocystis neurona; observed: parasite growth; concentration: 10 µM; time: 96 h; notes: secondary screen
`O=S(=O)(O)CCS` gave an inhibition of -9.4%.
For `CNC(=C[N+](=O)[O-])NCCSCc1ccc(CN(C)C)o1`, the inhibition was -12.3%.
`Nc1nc(O)c2ncn(COC(CO)CO)c2n1` has an inhibition of -20.4%.
`Nc1ccc(O)c(C(=O)O)c1` has an inhibition of -23.2%.

Some of these lines once more (series 2):
It gave 110% for remaining activity (Serine/threonine-protein kinase ULK2 (ULK2, Homo sapiens, UniProt Q8IYT8)).
The remaining activity was 96% (Mitogen-activated protein kinase 3 (MAPK3, Homo sapiens, UniProt P27361)).
It gave 106% for remaining activity (Fibroblast growth factor receptor 1 (FGFR1, Homo sapiens, UniProt P11362)).
